Experimental data gathered from unrelated publications.
Compare with care: the assays were run in different laboratories. Several values in a cell are separate wells, animals, samples, runs or records. Numbers after ± are the reported error.
USP14: Ubiquitin carboxyl-terminal hydrolase 14 (USP14, Homo sapiens, UniProt P54578)
SLC6A9: Sodium- and chloride-dependent glycine transporter 1 (SLC6A9, Homo sapiens, UniProt P48067)
Gria2/Glutamate receptor 3: Gria2/Glutamate receptor 3 (Rattus norvegicus, UniProt P19491+P19492)
MAPK9: Mitogen-activated protein kinase 9 (MAPK9, Homo sapiens, UniProt P45984)

Cc1ncc2[nH]c(=O)n(-c3cnc(Oc4cccc5c4C(C)(C)CO5)c(Cl)c3C)c2n1 — availability V1/2 (KCNC1 (Homo sapiens, UniProt P48547); potassium current, manual patch clamp; 1 µM, prepulse 30 s, test +40 mV): -37.7 ± 5.4 mV
CC(C)C[C@@H]1NC(=O)CN(C)C(=O)[C@H](Cc2c[nH]c3ccccc23)NC(=O)[C@H](CCC(=O)O)NC(=O)[C@H](Cc2ccccc2)N(C)C(=O)[C@H](Cc2ccccc2)NC(=O)CSC[C@@H](C(N)=O)NC(=O)[C@H](CCCCN)NC(=O)[C@H](C(C)C)NC(=O)[C@H](Cc2ccc(O)cc2)NC(=O)[C@H](Cc2ccc(O)cc2)NC(=O)[C@H](C(C)C)NC(=O)[C@H](Cc2ccccc2)N(C)C(=O)[C@H](CCCNC(=N)N)NC1=O — ΔTm (AT-rich interactive domain-containing protein 1B (ARID1B, Homo sapiens, UniProt Q8NFD5, A2203Q/I2161S/V2196N); differential scanning fluorimetry; 5 µM, I2078S/V2113N/A2120Q mutant): 0 °C
CC(C)[C@@H]1NC(=O)[C@H](Cc2ccccc2)NC(=O)CSC[C@@H](C(N)=O)NC(=O)[C@H](CCC(=O)O)NC(=O)[C@H](CO)NC(=O)[C@H](Cc2c[nH]c3cccc(Cl)c23)NC(=O)[C@H](C2CCCCC2)NC(=O)[C@H](C(C)C)NC(=O)[C@H](Cc2ccc(O)cc2)NC(=O)[C@H](CC(=O)O)NC(=O)[C@H](Cc2c[nH]c3ccccc23)NC(=O)[C@H](Cc2ccc(N)nc2)NC(=O)[C@H](Cc2c[nH]c3ccc(Cl)cc23)NC(=O)[C@H](CCC(=O)O)NC1=O — remaining activity (Interleukin-1 receptor-like 2 (IL1RL2, Homo sapiens, UniProt Q9HB29); reporter gene (SEAP), inhibitor, HEK-Blue IL-36R reporter; HEK-Blue IL-36R cells; 33.33 µM, 6 h, with: IL-36β 100 ng/mL): 83.2%
Cc1cc(=O)oc2cc(NC(=O)CCCCCCC(=O)NO)ccc12 — binding stoichiometry (HDAC8 (Homo sapiens, UniProt Q9BY41); ITC; Tris-HCl buffer; concentration not given, 293 K): 0.9
CC1=NNC(=O)/C1=N\Nc1ccccc1 — inhibition (USP14; enzyme activity, inhibitor; 17 µM): 26%
CC(C)Oc1cc(Cl)ccc1CNc1cc(-c2ccccc2)nc2ncnn12 — cAMP luminescence (GPR3 (Homo sapiens, UniProt P46089, Q211A); cAMP level, cAMP GloSensor; 100 nM; higher = more cAMP): 40500 a.u. and 35200 a.u. and 38700 a.u. and 48400 a.u.
COC(=O)[C@@]1(Cc2ccccc2)C=C(C(=O)OC(C)(C)C)C(=O)CC1 — fraction bound (MAPK14 (Homo sapiens, UniProt Q16539, C162A); peptide binding, fluorescence polarization; 31.25 µM): 0.594
O=C(N/N=C/c1cc[n+](Cc2ccccc2)c2ccccc12)C(=O)N/N=C/c1cc[n+](Cc2ccccc2)c2ccccc12 — ΔTm (MYC parallel G4 DNA; FRET melting; 1 µM, DNA 0.2 µM, with: duplex DNA competitor 10 µM): 4.1 ± 0.3 °C
NC(=O)C[C@@H]1NC(=O)[C@H](Cc2ccc(O)cc2)NC(=O)CNC(=O)CNC(=O)[C@H](CCC(=O)O)NC(=O)[C@H](CCC(=O)O)NC(=O)[C@H](Cc2ccccc2)NC(=O)[C@@H]2CCCN2C1=O — binding stoichiometry (EH domain-containing protein 1, EH domain (Homo sapiens, UniProt Q9H4M9); peptide binding, ITC; concentration not given, 0 mM NaCl): 1.03 and 1.05 and 1.04
Cc1cc(C)cc(COc2cc3c(cc2OCc2cc(C)cc(C)c2)C2CC(O)(Cc4cn(CCOCCOCCNC(=O)CCCCC5SCC6NC(=O)NC65)nn4)CC(C)N2CC3)c1 (stereo not drawn) — SILAC ratio (T-complex protein 1 subunit gamma (Homo sapiens, UniProt P49368); biotinylated probe pull-down, refers to: CCT3; 10 µM probe; relative to: heavy over light): 1.62
O=C1c2sc(-c3ccc(N4CCC(CO)CC4)nc3F)nc2CCN1c1cccnc1 — specific binding (TAR DNA-binding protein 43, aggregated (TARDBP, Homo sapiens, UniProt Q13148); radioligand binding; human, FTLD-TDP type B extract; with: radioligand 26.56 nM): 4.7 nM and 5.91 nM
OC1CCCCC1N1CCC(c2ccc(Br)cc2)CC1 (racemic) — selectivity ratio (SIGMAR1 (Homo sapiens, UniProt Q99720); rat liver (sigma2), human sigma1; relative to: Ki sigma2 over Ki sigma1): 2.7
COc1ccc(C(C#CCCN2CCC[C@H](C(=O)O)C2)(c2ccc(OC)cc2)c2ccc(OC)cc2)cc1 — remaining signal (SLC6A9; cell-free assay; 1 µM): 89.9%
COC(=O)Cc1cc2c(cc1C(=O)c1ccccc1Cl)OCO2 — deactivation time constant (Gria2/Glutamate receptor 3; glutamate-evoked current, whole-cell patch clamp; HEK-293T; concentration not given, weighted tau, 1 ms pulse, with: glutamate): 3.4 ± 0.2 ms
CC[C@H](C)[C@H](NC(=O)[C@@H](NC(=O)[C@@H](NC(=O)[C@@H](NC(=O)[C@H](CCCNC(=N)N)NC(=O)[C@H](CCC(=O)O)NC(=O)[C@H](CCC(=O)O)NC(=O)[C@H](C)NC(=O)[C@H](CCC(=O)O)NC(=O)CNC(=O)[C@H](C)NC(=O)CN)C(C)C)C(C)C)C(C)C)C(=O)N[C@@H](CC(=O)O)C(=O)N[C@@H](CC(=O)O)C(=O)N[C@@H](CC(=O)O)C(=O)N[C@@H](CCC(=O)O)C(=O)N[C@@H](CC(=O)O)C(=O)N[C@@H](CC(=O)O)C(=O)N[C@@H](CC(=O)O)C(=O)N[C@@H](C)C(=O)N[C@@H](CCC(=O)O)C(=O)N[C@@H](CC(N)=O)C(=O)N[C@@H](CO)C(=O)N[C@@H](CO)C(=O)N[C@@H](CO)C(=O)N[C@@H](CCCNC(=N)N)C(=O)N[C@@H](Cc1ccc(O)cc1)C(=O)O — enthalpy change (ΔH) (Small ubiquitin-related modifier 1 (Homo sapiens, UniProt P63165, C52A); isothermal titration calorimetry; concentration not given, pH 7.4, SUMO1 construct): 5.25 ± 0.03 kcal/mol
CCCC[C@H](NC(=O)CCCCCCCNC(=O)CN1CCN(CC(=O)O)CCN(CC(=O)O)CC1)C(=O)N[C@H]1CC(=O)NCCCC[C@@H](C(N)=O)NC(=O)[C@H](Cc2c[nH]c3ccccc23)NC(=O)[C@H](CCCNC(=N)N)NC(=O)[C@@H](Cc2ccccc2)NC(=O)[C@H](Cc2c[nH]cn2)NC1=O [technetium-99m labelled] — tissue uptake (C57 mouse, kidneys; intravenous, 0.037 MBq, 0.5 h): 5.32 ± 0.28 %ID/g
COC(=O)[C@@]1(C)C=C(C(=O)Nc2cccc(C(=O)Nc3ccc(Nc4nccc(-c5cccnc5)n4)c(C)c3)c2)C(=O)CC1 — remaining activity (MAPK9; enzyme activity, inhibitor; 0.5487 µM, unit not given; relative to: vehicle): 0.244
C#CCN1CCN(c2nc(N3CCC(CCOc4cc(-c5scnc5C)ccc4CNC(=O)[C@@H]4C[C@@H](O)CN4C(=O)[C@@H](NC(=O)C4(F)CC4)C(C)(C)C)CC3)nc(N3CCN(C(=O)C4CC4)C3)n2)CC1=O — Dmax (VHL/BRD9 (Homo sapiens, UniProt P40337+Q9H8M2); BRD9 degradation, degrader, HiBiT; HEK293T BRD9-HiBiT; 15 h): 80%
O=C(N/N=C/c1ccc(C[n+]2ccccc2)cc1)c1ccc2ccc(C(=O)N/N=C/c3ccc(C[n+]4ccccc4)cc3)nc2n1 — ΔTm (hp2 hairpin duplex DNA; FRET melting; 1 µM): 0.5 ± 0.2 °C
CC(C(=O)O)N1C(=O)C(=Cc2ccco2)SC1=S (stereo not drawn) — inhibition (USP14; enzyme activity, inhibitor; 17 µM): 17%
Cc1cc(NC(=O)c2cccc(N)c2)ccc1Nc1nccc(-c2cccnc2)n1 — remaining activity (MAPK9; enzyme activity, inhibitor; 1.646 µM, unit not given; relative to: vehicle): 0.571
O=C(O)Cc1cc2c(cc1C(=O)c1ccccc1Cl)OCO2 — current amplitude (Gria2/Glutamate receptor 3; glutamate-evoked current, whole-cell patch clamp; HEK-293T; concentration not given, pH 7.4, holding potential -60 mV, with: 10 mM glutamate): 73 ± 4 pA
O=C1CCCC(O)=C1C1(O)C(=O)c2ccccc2C1=O — inhibition (USP14; enzyme activity, inhibitor; 17 µM): 81%
CCCCCCCCCCCCC/C=C/C=O — isoTOP-ABPP competition ratio (Ketosamine-3-kinase, C24 (FN3KRP, Homo sapiens, UniProt Q9HA64); competitive isoTOP-ABPP; Ramos soluble proteome; 100 µM, 60 min, with: iodoacetamide probe; relative to: DMSO over compound-treated, higher = stronger cysteine blockade): 1
COC(=O)C1=CCCN(CCOC(c2ccc(OC)cc2)(c2ccc(OC)cc2)c2ccc(OC)cc2)C1 — remaining signal (SLC6A9; cell-free assay; 1 µM): 76%
CCCCCCCO[C@H]1[C@H](OC)O[C@H](CO)[C@@H](O)[C@H](O)[C@@H]1O — binding stoichiometry (Type 1 fimbrin D-mannose specific adhesin, lectin domain (fimH, Escherichia coli K-12, UniProt P08191); isothermal titration calorimetry; concentration not given, 25 °C): 0.98 ± 0.01
Cc1ccc(-n2cc(CSc3nc4ccccc4n3Cc3cn(-c4ccc(C)cc4)nn3)nn2)cc1 — geometric mean inhibition (DNA topoisomerase I (calf thymus); enzyme activity, inhibitor; Caco-2; 50, 100, 500 ppm, 30 min, 37 °C): 28.6%
